Results collected from several papers.
“And” joins repeats or separate records; there may be more than shown. Numbers after ± are the reported error.

N#Cc1ccc2c(-c3ccncc3)c(-c3ccc(F)cc3)nn2c1 — log2 fold change (kinase binding, competitor, MIB/MS competition, refers to: RTK1; Candida albicans cell lysate; 10 µM; baseline: DMSO): -0.0931
C[C@H]1O[C@@H](O[C@H]2CC[C@@]3(C)[C@@H](CC[C@]4(C)[C@@H]3C=C[C@]35OC[C@@]6(CCC(C)(C)C[C@H]63)[C@@H](O)C[C@]54C)[C@]2(C)CO)[C@H](O)[C@@H](O[C@@H]2O[C@H](CO)[C@@H](O)[C@H](O)[C@H]2O)[C@H]1O — adipose area (H&E staining; chronic-plus-binge ethanol mice; dose not given, medium dose): 11.5% and 13.4% and 15.6% and 13.6%
COc1ccc(-c2cncc(N[C@@H](C)c3cccc(NC(=O)c4cncc(C)c4)c3)n2)cc1OC — delta delta Ct (refers to: rno-miR-193-3p; rat SU5416/hypoxia model, lung; dose not given, unit not given; baseline: SU5416/hypoxia vehicle): -0.000833
FC(F)(F)Oc1cccc(-c2cnc3ccc(-c4ccncc4)nn23)c1 — tumour size (MDA-MB-231 xenograft, NSG mouse; oral, 10 mg/kg daily, day 5; higher = larger tumour): 0.0688 a.u. and 0.036 a.u. and 0.108 a.u. and 0.032 a.u.
CCC(C)C(=O)NCC(=O)O (stereo not shown) — log2 fold change (binding, MIDAS equilibrium dialysis LC-MS; A2AR-BRIL thermostabilized; concentration not given; baseline: no-protein control): -0.789
O=P(O)(O)C(Cl)(Cl)P(=O)(O)O — GFAP-positive area (immunostaining; mouse, SAH model, meninges; dose not given, day 7; baseline: total area): 6.38%
Cc1coc([C@H]2C[C@H]3[C@@H](CF)SC(N)=N[C@@]3(c3ccc(F)cc3F)CO2)n1 — Aβ40 level (refers to: Aβx-40; Mus musculus wild-type, cerebrospinal fluid; subcutaneous, 80 mg/kg, 14 h): 0.96 ng/mL
N[C@H](CCC(=O)O)C(=O)O — log2 fold change (binding, MIDAS equilibrium dialysis LC-MS; A2AR-BRIL thermostabilized; concentration not given; baseline: no-protein control): 0.0887
CN1CC[C@@H](c2c(O)cc(O)c3c(=O)cc(-c4ccc(C(F)(F)F)cc4Cl)oc23)[C@@H]1CO — enriched MYC-regulated genes (RNA-seq; PBMC, human, AML; cycle 1 6 h; baseline: pretreatment): 41 genes
Cn1cc(Nc2nccc(-c3ccc4c(c3)CN(C3COC3)CC[C@H]4NC(=O)c3cn(C(C)(C)C)nn3)n2)cn1 — pathway activation z-score (refers to: HMGB1 signalling; mouse splenic B cells, mouse; 30 mg/kg, IgD-activated B cells in vivo; baseline: vehicle, direction not given): 2.83
N#Cc1ccc2c(c1)[C@H]1CCCN(C(=O)c3ccc4[nH]cnc4c3)[C@H]1C2 — change from baseline (refers to: 1,5-anhydroglucitol; human; 20 mg once daily, day 28, adjusted mean): -0.83 mg/L
c1ccc(-c2n[nH]cc2-c2ccnc3ccccc23)nc1 — log2 fold change (kinase binding, competitor, MIB/MS competition, refers to: FPK1; Candida albicans cell lysate; 10 µM; baseline: DMSO): 1.72
Cc1cn([C@H]2C[C@H](O)[C@@H](CO)O2)c(=O)[nH]c1=O — log2 fold change (binding, MIDAS equilibrium dialysis LC-MS; A2AR-BRIL thermostabilized; concentration not given; baseline: no-protein control): -0.0926
O=C(O)CN1Cc2cccc(n2)CN(CC(=O)O)Cc2cccc(n2)C1 — transmetallation rate constant (HPLC; water; 25 °C, Mn complex dissociation, added: 25 equiv Zn2+): 0.00068 s⁻¹
Cc1cc([C@H]2C[C@H]3[C@@H](CF)SC(N)=N[C@@]3(c3ccc(F)cc3F)CO2)on1 — Aβ40 level (refers to: Aβx-40; Mus musculus wild-type, cerebrospinal fluid; subcutaneous, 30 mg/kg, 7 h): 0.81 ng/mL
OC[C@H]1O[C@H](OC[C@H]2O[C@H](O[C@]3(CO)O[C@H](CO)[C@@H](O)[C@@H]3O)[C@H](O)[C@@H](O)[C@@H]2O)[C@H](O)[C@@H](O)[C@H]1O — log2 fold change (binding, MIDAS equilibrium dialysis LC-MS; A2AR-BRIL thermostabilized; concentration not given; baseline: no-protein control): -0.142
Cc1n[nH]c2ccc(-c3cc(OC[C@@H](N)Cc4ccccc4)cnc3-c3ccoc3)cc12 — log2 fold change (kinase binding, competitor, MIB/MS competition, refers to: HRR25; Candida albicans cell lysate; 100 nM; baseline: DMSO): -0.165
CC(C)c1cc(C(=O)N2Cc3ccc(CN4CCN(C)CC4)cc3C2)c(O)cc1O — brain tracer uptake (inhibitor; mouse, U87 xenograft; i.p., 10 mg/kg, 60 min p.i., added: [11C]HSP990): no effect
Cc1cnc(N2CC3(CCOCC3)C2)c(C(=O)Nc2ccc(C(=O)N3CCc4cc(C(=O)Nc5c(C)cccc5F)sc4-c4ccccc43)cc2)c1 — inhibition (refers to: IL-4; human RSV infection, nasal wash; dose not given, AUC, ITT-IS population; baseline: placebo): 8%
OC(CCN1CCCCC1)(c1ccccc1)C1CC2C=CC1C2 (stereo not shown) — change in EEG Beta2-power Fz-Cz (resting-state EEG; healthy elderly humans; oral, 4 mg, eyes open, LS mean; baseline: baseline): 0.4%
COc1cc(Nc2ncc3c(n2)-c2ccc(Cl)cc2C(c2c(F)cccc2OC)=NC3)ccc1C(=O)O — median response score (mouse, NB-1771 neuroblastoma xenograft; 2.6 mg/kg; direction not given): 2
CC(=O)N[C@@H](CCCN)C(=O)O — log2 fold change (binding, MIDAS equilibrium dialysis LC-MS; A2AR-BRIL thermostabilized; concentration not given; baseline: no-protein control): -0.0335
N#Cc1ccn2c(-c3ccncc3)c(-c3ccc(F)cc3)nc2c1 — log2 fold change (kinase binding, competitor, MIB/MS competition, refers to: CAK1; Candida albicans cell lysate; 100 nM; baseline: DMSO): 0.0171
C[C@H](Oc1ccc(Br)cc1-c1ccon1)C(=O)O — difference from placebo (muscle velocity recovery cycle; human, tibialis anterior muscle; 400 mg once daily, first response latency at 15 Hz, multiple ascending dose): -1.27%
C[C@@H](O)CCOC(=O)C[C@@H](C)O — metabolite level (refers to: Ala; human, plasma; 60 min, log2-transformed values): 8.69 ± 0.25 µmol/L
CN(C)C(=O)Nc1cccc(-c2ccc(N(C)C)cc2)c1 — plasma free fatty acids (mouse high-fat diet; dose not given): 0.488 mmol/L and 0.445 mmol/L and 0.325 mmol/L and 0.402 mmol/L and 0.427 mmol/L and 0.366 mmol/L
NCC(=O)Nc1cncc(-c2nn3c(=O)cc(N4CCNCC4)nc3s2)c1 — inhibition of platelet aggregation (ADP-induced platelet aggregation, light transmission aggregometry; human stable CAD patients on aspirin, platelets ex vivo; 0.075 mg/kg, 90 min post dose, added: 20 µM ADP; baseline: placebo difference): 28.1%
CC(C)NCC(O)c1ccc(O)c(O)c1 (stereo not shown) — sarcomere length (ventricular cardiomyocytes, C57BL/6 mouse; dose not given, 0.448 s): 1.7 µm
O=C1O[C@H]([C@@H](O)CO)C(O)=C1O — inhibition (nitric oxide scavenging; 200 µM): 63.7%
Cn1cc(Nc2nc(N)nc(-c3cccc(-n4ccc5cc(C6CC6)cc(F)c5c4=O)c3CO)n2)cn1 — inhibition (CD63 upregulation, anti-IgE-induced; human, multiple ascending dose, whole blood basophils ex vivo; 50 mg twice daily, day 14, 6 h): 77.6%
N[C@@H](Cc1c[nH]c2ccccc12)C(=O)O — log2 fold change (binding, MIDAS equilibrium dialysis LC-MS; A2AR-BRIL thermostabilized; concentration not given; baseline: no-protein control): 0.177
NC(=O)c1cnc2[nH]ccc2c1N[C@@H]1[C@@H]2CC3C[C@H]1C[C@@](O)(C3)C2 — percent change (CD8+ central memory T cells, flow cytometry; Caucasian humans, peripheral blood; 60 mg single dose; baseline: baseline): 0.93%
O=P(O)(O)OC[C@H](O)CO — log2 fold change (binding, MIDAS equilibrium dialysis LC-MS; A2AR-BRIL thermostabilized; concentration not given; baseline: no-protein control): -0.0422
CCOCc1nc(O)c(-c2nnc(Cc3ccc(Cl)cn3)o2)c(O)c1-c1c(OC)cccc1OC — stroke volume increase (renal hypertensive rat; po, 0.2 mg/kg once daily, peak exposure; baseline: vehicle): 30%
C=CCn1c(=O)c2cnc(Nc3ccc(N4CCN(C)CC4)cc3)nc2n1-c1ccc2c(n1)[C@@](O)(CC)CC2 — tumour volume difference (MIA PaCa-2, BALB/c nude mice, xenograft; oral, 80 mg/kg once daily, day 21; baseline: vehicle): 502 ± 15.2 mm3
CC(=O)Oc1cc2c(s1)CCN(C(C(=O)C1CC1)c1ccccc1F)C2 (stereo not shown) — patients with IPA above 90% (platelet aggregation, light transmission aggregometry; human patients, platelet-rich plasma; dose not given, 3 h, added: TRAP 5 µM): 9.5%
COc1cccc2c1C(=O)c1c(O)c3c(c(O)c1C2=O)C[C@@](O)(C(=O)CO)C[C@@H]3O[C@H]1C[C@H](N)[C@H](O)[C@H](C)O1 — IC50 (organoid viability, CellTiter-Glo 3D; sample E colorectal cancer organoid, human; 6 days): 420 pM
CC(C)[C@H](C(=O)Nc1ccc(C(=O)NO)cc1)c1ccccc1 — tumour volume change (volumetric MRI; human, right vagal schwannoma; dose not given, day 835; baseline: baseline): 52.5%
COc1cc(O)c(CC=C(C)C)c(O)c1C(=O)/C=C/c1ccc(O)cc1 — HOMA-IR (male Tac:SW conventional mice; in high-fat diet, dose not given; baseline: high-fat diet alone): decreased
C[C@H]1C[C@H]2CSC(N)=N[C@@]2(c2nc(NC(=O)c3ccc(OC(F)F)cn3)cs2)CO1 — percent change from baseline (refers to: Aβ1-40; healthy adults, plasma; 40 mg single dose, 24 h post-dose; baseline: placebo): -66.6%
O=C(O)CNC(=O)Cc1ccccc1 — sarcomere length (ventricular cardiomyocytes, C57BL/6 mouse; dose not given, 0.572 s): 1.63 µm
Cc1cc([C@H]2C[C@H]3[C@@H](C)SC(N)=N[C@@]3(c3ccc(F)cc3F)CO2)on1 — Aβ40 level (refers to: Aβx-40; Mus musculus wild-type, cerebrospinal fluid; subcutaneous, 50 mg/kg, 3 h): 0.2 ng/mL
C[C@@H]1C[C@H]2[C@@H]3CCC4=CC(=O)C=C[C@]4(C)[C@@]3(F)[C@@H](O)C[C@]2(C)[C@@]1(O)C(=O)CO — IL6 level difference (mouse, oxazolone dermatitis, plasma; topical, 20 mg/ear, once daily, unit not given; baseline: vehicle): 92.6
O=C(O)CNC(=O)C(CS)Cc1ccccc1 (stereo not shown) — Met-enkephalin concentration (LC-MS/MS, refers to: extracellular Met-enkephalin; mouse striatal brain slices; 10 µM, 20 min, added: 50 mM KCl): 9310 pM and 7820 pM and 6490 pM and 13000 pM and 26400 pM and 7790 pM and 15200 pM
Cc1ccc2c(c1)C(=O)[C@]1(O)CCN(c3ccc4nc(C)ccc4c3)C1=N2.Cl — nuclear area increase (mouse, Trp53-/- tumour, tumour H&E sections; intraperitoneal, 10 mg/kg daily, 336 h): 53%
N#Cc1ccc2c(c1)[C@H]1CCCN(C(=O)c3ccc4[nH]cnc4c3)[C@H]1C2 — fasting plasma glucose (T2DM patients with overweight or obesity, plasma; oral, 160 mg, day 15 (360 h), multiple dosing, mean): 148 mg/dL
COc1ncnn2ccc(-c3cnc4nc(C)n(Cc5nnc([C@@H](C)F)o5)c4c3)c12 — longest duration of response (Homo sapiens, relapsed or refractory AML or MDS; dose not given, responding patient): > 2 years
Nc1ccn([C@@H]2O[C@H](CO)[C@@H](O)[C@H]2O)c(=O)n1 — log2 fold change (binding, MIDAS equilibrium dialysis LC-MS; A2AR-BRIL thermostabilized; concentration not given; baseline: no-protein control): -0.182
C[C@@H](NC(=O)N1C(=O)[C@H](Cc2ccnc(N)c2)[C@H]1C(=O)O)C1CCCCC1 — ACT AUEC (human; iv infusion, 0.6 mg/kg/h, 24 h, unit not given; baseline: baseline): 124

Repeated from above:
CN1CC[C@@H](c2c(O)cc(O)c3c(=O)cc(-c4ccc(C(F)(F)F)cc4Cl)oc23)[C@@H]1CO — enriched MYC-regulated genes (RNA-seq; PBMC, human, AML; cycle 1 6 h; baseline: pretreatment): 41 genes
Cn1cc(Nc2nccc(-c3ccc4c(c3)CN(C3COC3)CC[C@H]4NC(=O)c3cn(C(C)(C)C)nn3)n2)cn1 — pathway activation z-score (refers to: HMGB1 signalling; mouse splenic B cells, mouse; 30 mg/kg, IgD-activated B cells in vivo; baseline: vehicle, direction not given): 2.83
N#Cc1ccc2c(c1)[C@H]1CCCN(C(=O)c3ccc4[nH]cnc4c3)[C@H]1C2 — change from baseline (refers to: 1,5-anhydroglucitol; human; 20 mg once daily, day 28, adjusted mean): -0.83 mg/L
c1ccc(-c2n[nH]cc2-c2ccnc3ccccc23)nc1 — log2 fold change (kinase binding, competitor, MIB/MS competition, refers to: FPK1; Candida albicans cell lysate; 10 µM; baseline: DMSO): 1.72
Cc1cn([C@H]2C[C@H](O)[C@@H](CO)O2)c(=O)[nH]c1=O — log2 fold change (binding, MIDAS equilibrium dialysis LC-MS; A2AR-BRIL thermostabilized; concentration not given; baseline: no-protein control): -0.0926
O=C(O)CN1Cc2cccc(n2)CN(CC(=O)O)Cc2cccc(n2)C1 — transmetallation rate constant (HPLC; water; 25 °C, Mn complex dissociation, added: 25 equiv Zn2+): 0.00068 s⁻¹
Cc1cc([C@H]2C[C@H]3[C@@H](CF)SC(N)=N[C@@]3(c3ccc(F)cc3F)CO2)on1 — Aβ40 level (refers to: Aβx-40; Mus musculus wild-type, cerebrospinal fluid; subcutaneous, 30 mg/kg, 7 h): 0.81 ng/mL
OC[C@H]1O[C@H](OC[C@H]2O[C@H](O[C@]3(CO)O[C@H](CO)[C@@H](O)[C@@H]3O)[C@H](O)[C@@H](O)[C@@H]2O)[C@H](O)[C@@H](O)[C@H]1O — log2 fold change (binding, MIDAS equilibrium dialysis LC-MS; A2AR-BRIL thermostabilized; concentration not given; baseline: no-protein control): -0.142
